Measured values collected from several papers.
Numbers after ± are the reported error.
rhlR: HTH-type quorum-sensing regulator RhlR (rhlR, Pseudomonas aeruginosa, UniProt P54292)
UniProt P54292, sequence (whole entry, looked up): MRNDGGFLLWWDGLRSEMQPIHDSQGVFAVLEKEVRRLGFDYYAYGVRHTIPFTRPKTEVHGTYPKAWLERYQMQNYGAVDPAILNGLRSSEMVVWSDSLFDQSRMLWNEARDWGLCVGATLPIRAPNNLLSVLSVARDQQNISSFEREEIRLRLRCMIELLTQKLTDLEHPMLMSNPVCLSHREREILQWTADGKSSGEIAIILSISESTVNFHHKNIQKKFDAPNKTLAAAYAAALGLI
STK3: Serine/threonine-protein kinase 3 (STK3, Homo sapiens, UniProt Q13188)
UniProt Q13188, sequence (whole entry, looked up): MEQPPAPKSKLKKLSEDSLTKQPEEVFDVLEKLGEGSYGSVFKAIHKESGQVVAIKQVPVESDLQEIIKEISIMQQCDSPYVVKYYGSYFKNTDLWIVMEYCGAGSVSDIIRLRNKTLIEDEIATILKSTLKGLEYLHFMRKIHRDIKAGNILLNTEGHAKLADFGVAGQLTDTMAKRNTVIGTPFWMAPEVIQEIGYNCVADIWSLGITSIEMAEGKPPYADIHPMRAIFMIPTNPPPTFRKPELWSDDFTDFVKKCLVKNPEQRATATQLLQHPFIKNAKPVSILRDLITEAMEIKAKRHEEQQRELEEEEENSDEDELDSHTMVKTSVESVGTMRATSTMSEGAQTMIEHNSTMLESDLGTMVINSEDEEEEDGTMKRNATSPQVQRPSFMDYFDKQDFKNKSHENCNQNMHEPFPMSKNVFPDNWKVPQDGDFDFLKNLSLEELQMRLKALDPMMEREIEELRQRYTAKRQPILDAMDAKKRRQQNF
JAK3: Tyrosine-protein kinase JAK3 (JAK3, Homo sapiens, UniProt P52333)
UniProt P52333, sequence (whole entry, looked up): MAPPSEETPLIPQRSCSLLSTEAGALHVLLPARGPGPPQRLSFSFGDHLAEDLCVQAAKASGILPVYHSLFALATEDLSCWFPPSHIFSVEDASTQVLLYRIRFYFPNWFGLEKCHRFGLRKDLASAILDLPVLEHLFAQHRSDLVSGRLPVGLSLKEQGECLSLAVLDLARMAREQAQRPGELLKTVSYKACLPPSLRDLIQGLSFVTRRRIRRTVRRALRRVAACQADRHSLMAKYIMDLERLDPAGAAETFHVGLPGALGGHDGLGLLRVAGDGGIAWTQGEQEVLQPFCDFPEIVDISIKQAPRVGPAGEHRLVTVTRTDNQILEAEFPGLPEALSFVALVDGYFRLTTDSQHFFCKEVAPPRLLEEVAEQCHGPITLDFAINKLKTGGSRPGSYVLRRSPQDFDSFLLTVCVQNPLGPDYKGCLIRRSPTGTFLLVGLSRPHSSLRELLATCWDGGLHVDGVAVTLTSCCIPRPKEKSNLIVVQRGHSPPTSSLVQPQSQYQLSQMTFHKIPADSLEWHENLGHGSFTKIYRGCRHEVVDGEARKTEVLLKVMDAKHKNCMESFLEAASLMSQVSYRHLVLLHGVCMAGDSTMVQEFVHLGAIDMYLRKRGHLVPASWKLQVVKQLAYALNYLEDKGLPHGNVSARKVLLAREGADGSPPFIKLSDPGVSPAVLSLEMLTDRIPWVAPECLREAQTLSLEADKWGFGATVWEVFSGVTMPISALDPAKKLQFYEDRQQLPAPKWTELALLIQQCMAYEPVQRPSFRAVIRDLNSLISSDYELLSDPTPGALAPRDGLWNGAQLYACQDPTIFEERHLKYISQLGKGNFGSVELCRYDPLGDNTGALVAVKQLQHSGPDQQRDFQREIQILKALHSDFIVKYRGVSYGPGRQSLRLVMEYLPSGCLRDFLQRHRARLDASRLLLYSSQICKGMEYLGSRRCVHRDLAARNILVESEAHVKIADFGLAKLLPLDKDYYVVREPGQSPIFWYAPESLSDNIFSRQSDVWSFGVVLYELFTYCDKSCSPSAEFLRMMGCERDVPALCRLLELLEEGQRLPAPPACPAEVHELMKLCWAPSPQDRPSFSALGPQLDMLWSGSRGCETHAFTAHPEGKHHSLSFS
ROS1: Proto-oncogene tyrosine-protein kinase ROS (ROS1, Homo sapiens, UniProt P08922)
UniProt P08922, sequence (whole entry, looked up): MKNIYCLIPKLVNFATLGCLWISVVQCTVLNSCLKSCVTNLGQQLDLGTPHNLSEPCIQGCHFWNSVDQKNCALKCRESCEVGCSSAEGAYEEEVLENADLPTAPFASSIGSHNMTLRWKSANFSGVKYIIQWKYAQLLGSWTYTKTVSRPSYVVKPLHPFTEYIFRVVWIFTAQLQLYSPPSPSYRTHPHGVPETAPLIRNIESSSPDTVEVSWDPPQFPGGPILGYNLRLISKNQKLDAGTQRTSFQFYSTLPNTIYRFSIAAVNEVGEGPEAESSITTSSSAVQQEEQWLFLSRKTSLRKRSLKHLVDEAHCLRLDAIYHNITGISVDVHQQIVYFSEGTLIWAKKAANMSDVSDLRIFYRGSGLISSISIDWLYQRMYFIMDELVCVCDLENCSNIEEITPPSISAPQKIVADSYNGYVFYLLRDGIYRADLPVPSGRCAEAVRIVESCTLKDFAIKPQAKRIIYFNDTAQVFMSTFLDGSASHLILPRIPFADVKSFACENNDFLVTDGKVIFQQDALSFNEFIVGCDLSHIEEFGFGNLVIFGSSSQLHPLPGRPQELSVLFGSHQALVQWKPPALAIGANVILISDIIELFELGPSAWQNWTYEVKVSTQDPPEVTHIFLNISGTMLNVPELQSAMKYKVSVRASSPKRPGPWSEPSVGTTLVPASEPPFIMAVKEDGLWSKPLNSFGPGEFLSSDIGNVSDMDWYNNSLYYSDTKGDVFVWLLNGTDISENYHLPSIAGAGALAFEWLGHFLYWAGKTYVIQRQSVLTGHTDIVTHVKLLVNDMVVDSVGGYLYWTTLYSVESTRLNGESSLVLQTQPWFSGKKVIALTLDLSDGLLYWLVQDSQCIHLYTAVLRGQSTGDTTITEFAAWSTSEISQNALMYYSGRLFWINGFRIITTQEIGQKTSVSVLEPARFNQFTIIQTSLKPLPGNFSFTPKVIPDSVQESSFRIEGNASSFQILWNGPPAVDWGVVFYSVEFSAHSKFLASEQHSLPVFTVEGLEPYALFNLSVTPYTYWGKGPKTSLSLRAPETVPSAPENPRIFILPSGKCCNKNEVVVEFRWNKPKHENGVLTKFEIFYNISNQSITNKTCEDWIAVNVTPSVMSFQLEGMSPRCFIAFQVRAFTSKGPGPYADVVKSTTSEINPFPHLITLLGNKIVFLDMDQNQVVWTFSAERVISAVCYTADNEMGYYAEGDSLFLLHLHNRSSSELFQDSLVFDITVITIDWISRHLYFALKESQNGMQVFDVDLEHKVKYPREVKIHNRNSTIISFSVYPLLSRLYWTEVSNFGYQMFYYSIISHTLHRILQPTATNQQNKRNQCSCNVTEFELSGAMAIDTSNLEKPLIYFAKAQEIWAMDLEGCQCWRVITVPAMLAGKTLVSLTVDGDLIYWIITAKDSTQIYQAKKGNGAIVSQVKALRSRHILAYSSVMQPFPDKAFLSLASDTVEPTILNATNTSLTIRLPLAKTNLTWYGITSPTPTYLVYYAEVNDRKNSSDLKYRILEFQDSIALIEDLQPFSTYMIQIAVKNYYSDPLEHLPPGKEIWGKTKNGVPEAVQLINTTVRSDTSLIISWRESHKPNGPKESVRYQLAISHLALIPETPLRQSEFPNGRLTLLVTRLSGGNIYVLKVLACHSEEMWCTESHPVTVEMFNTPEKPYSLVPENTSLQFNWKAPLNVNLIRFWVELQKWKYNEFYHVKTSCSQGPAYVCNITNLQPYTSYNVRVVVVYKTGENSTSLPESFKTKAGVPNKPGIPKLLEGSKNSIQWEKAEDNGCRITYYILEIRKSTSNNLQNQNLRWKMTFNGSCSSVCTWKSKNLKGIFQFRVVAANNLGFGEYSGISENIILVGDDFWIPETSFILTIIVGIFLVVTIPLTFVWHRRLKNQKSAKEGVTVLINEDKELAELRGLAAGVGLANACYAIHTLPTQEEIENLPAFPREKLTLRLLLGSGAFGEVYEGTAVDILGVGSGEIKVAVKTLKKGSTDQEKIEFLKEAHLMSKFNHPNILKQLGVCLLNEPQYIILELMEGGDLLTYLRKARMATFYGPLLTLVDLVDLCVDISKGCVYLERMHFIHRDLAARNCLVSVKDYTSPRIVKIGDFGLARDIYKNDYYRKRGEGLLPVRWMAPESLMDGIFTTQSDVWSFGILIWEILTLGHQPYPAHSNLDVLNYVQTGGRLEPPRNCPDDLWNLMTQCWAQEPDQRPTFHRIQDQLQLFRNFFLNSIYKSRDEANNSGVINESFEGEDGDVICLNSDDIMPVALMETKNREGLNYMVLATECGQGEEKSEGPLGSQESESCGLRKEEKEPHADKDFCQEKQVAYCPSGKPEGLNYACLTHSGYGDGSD
UniProt Q16654, sequence (whole entry, looked up): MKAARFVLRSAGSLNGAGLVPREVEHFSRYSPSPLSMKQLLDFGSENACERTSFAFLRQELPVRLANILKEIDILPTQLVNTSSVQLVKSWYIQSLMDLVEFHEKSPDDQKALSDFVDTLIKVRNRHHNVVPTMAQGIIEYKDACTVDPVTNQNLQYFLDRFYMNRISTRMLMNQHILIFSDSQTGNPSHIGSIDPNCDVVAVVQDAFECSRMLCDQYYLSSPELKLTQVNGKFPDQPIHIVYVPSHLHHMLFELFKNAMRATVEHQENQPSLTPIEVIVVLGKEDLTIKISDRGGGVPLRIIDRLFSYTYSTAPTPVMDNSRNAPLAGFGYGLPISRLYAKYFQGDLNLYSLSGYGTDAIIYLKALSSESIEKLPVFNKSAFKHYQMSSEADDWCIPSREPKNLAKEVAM

SMILES	tested on	test	setting	how to read	measurement	result
Cn1cc(-c2ccc(-c3cncc(Cl)c3N3CCC4(CCNC4=O)CC3)cc2)cn1	COLO 205	gene expression, microarray, item: FSCN1 mRNA	concentration not given, 2 h	reference: untreated cells	log2 fold change	2.06
Cc1cccc(C(=O)C#Cc2ccc(F)c(F)c2)c1	rhlR	reporter gene, inhibitor, quorum sensing reporter strain	10 µM, 1.5 h	reference: DMSO	remaining activity	69%
CNc1ncc2c(/C=C/C(=O)N3CCC(OC)CC3)nn(Cc3cccc(C(F)(F)F)c3)c2n1	STK3	kinase activity, inhibitor	1 µM	reference: untreated control	remaining activity	100%
COc1ccc(C(=O)C#Cc2ccc(F)c(F)c2)cc1	rhlR	reporter gene, inhibitor, quorum sensing reporter strain	10 µM, 1.5 h	reference: DMSO	remaining activity	77%
O=C(O)c1ccc(Nc2ncc3c(n2)-c2ccc(Cl)cc2C(c2c(F)cccc2F)=NC3)cc1	Rsk2(h)	kinase activity	1 µM		remaining activity	76%
C=CC(=O)N1CCC[C@@H](n2nc(-c3ccc(Oc4ccccc4)cc3)c3c(N)ncnc32)C1	[Pyruvate dehydrogenase (acetyl-transferring)] kinase isozyme 4, mitochondrial (PDK4, Homo sapiens, UniProt Q16654)		0.1 µM		remaining activity	85.2%
COc1cc(-c2[nH]nnc2C(=O)c2ccccc2)ccc1O	rhlR	reporter gene, inhibitor, quorum sensing reporter strain	10 µM, 1.5 h	reference: DMSO	remaining activity	75%
CC#CC(=O)N1CCC[C@H]1c1nc(-c2ccc(C(=O)Nc3ccccn3)cc2)c2c(N)nccn12	JAK3	kinase activity, inhibitor, HotSpot radiometric	100 nM, together with: ATP 10 µM		remaining activity	96.1 ± 1.5%
COc1cc(Nc2ncc3c(n2)-c2ccc(Cl)cc2C(c2c(F)cccc2OC)=NC3)ccc1C(=O)O	TAOK2	kinase activity	1 µM		remaining activity	96%
Nc1nc(CC(=O)O)cs1	Protein deacetylase HDAC6, ZnF-UBD domain (HDAC6, Homo sapiens, UniProt Q9UBN7)				Kd	> 1 mM
COc1cc(C#CC(O)CC(C)C)ccc1O (stereo not drawn)	rhlR	reporter gene, inhibitor, quorum sensing reporter strain	10 µM, 1.5 h	reference: DMSO	remaining activity	83%
COc1cc(F)ccc1-c1ncnc(Nc2cccc(C[S@](C)(=N)=O)c2)n1	STK3	kinase activity	10 µM, together with: 10 µM ATP		remaining activity	97%
COc1cc(-c2cncc3c2CN(C)Cc2cc(N4CCNCC4)ccc2-3)cc(OC)c1OC	ROS1	kinase activity	1 µM, human enzyme, together with: ATP 10 µM	reference: DMSO control	remaining activity	119%
COc1ccc(F)cc1C(=O)NCc1ccc(-c2nn([C@@H](C)C(F)(F)F)c(N)c2C(N)=O)cc1	JAK3	kinase activity, inhibitor, HotSpot radiometric	1000 nM, together with: ATP at Km		remaining activity	97 ± 1.7%
O=C(NC1CCC1)c1ccc2nc(-c3cccc(NS(=O)(=O)NCCN4CCCCC4)c3)cn2c1	ROS1	enzyme activity	10 µM		remaining activity	100%

For quick reference, copied from above:
SMILES	tested on	test	setting	how to read	measurement	result
COc1cc(-c2cncc3c2CN(C)Cc2cc(N4CCNCC4)ccc2-3)cc(OC)c1OC	ROS1	kinase activity	1 µM, human enzyme, together with: ATP 10 µM	reference: DMSO control	remaining activity	119%
O=C(NC1CCC1)c1ccc2nc(-c3cccc(NS(=O)(=O)NCCN4CCCCC4)c3)cn2c1	ROS1	enzyme activity	10 µM		remaining activity	100%
